Results collected from several papers.
Compare with care: the assays were run in different laboratories. “And” joins repeats or separate records; there may be more than shown. ± marks the error that the study gave.
Grm2: Metabotropic glutamate receptor 2 (Grm2, Rattus norvegicus, UniProt P31421)
Lysophospholipase-like protein 1: Lysophospholipase-like protein 1 (Mus musculus, UniProt Q3UFF7)
E3 ubiquitin-protein ligase NEDD4: E3 ubiquitin-protein ligase NEDD4 (Homo sapiens, UniProt P46934)
RPA1 N-terminal domain: Replication protein A 70 kDa DNA-binding subunit, N-terminal domain (RPA1, Homo sapiens, UniProt P27694)
GRM4: Metabotropic glutamate receptor 4 (GRM4, Homo sapiens, UniProt Q14833)
FPR1: fMet-Leu-Phe receptor (FPR1, Homo sapiens, UniProt P21462)
GLP1R: Glucagon-like peptide 1 receptor (GLP1R, Homo sapiens, UniProt P43220)

Sequences of proteins named here, by UniProt entry; tags and fusion partners are left off. Residues count along the entry.
UniProt Q3UFF7, whole entry: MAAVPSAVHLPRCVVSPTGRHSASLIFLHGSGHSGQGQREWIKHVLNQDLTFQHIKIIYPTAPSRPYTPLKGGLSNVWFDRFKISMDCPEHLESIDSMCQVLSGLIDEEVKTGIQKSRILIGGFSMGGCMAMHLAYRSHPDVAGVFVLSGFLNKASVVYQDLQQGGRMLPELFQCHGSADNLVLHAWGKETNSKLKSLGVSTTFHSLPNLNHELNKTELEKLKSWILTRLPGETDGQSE
UniProt P46934, whole entry, looked up: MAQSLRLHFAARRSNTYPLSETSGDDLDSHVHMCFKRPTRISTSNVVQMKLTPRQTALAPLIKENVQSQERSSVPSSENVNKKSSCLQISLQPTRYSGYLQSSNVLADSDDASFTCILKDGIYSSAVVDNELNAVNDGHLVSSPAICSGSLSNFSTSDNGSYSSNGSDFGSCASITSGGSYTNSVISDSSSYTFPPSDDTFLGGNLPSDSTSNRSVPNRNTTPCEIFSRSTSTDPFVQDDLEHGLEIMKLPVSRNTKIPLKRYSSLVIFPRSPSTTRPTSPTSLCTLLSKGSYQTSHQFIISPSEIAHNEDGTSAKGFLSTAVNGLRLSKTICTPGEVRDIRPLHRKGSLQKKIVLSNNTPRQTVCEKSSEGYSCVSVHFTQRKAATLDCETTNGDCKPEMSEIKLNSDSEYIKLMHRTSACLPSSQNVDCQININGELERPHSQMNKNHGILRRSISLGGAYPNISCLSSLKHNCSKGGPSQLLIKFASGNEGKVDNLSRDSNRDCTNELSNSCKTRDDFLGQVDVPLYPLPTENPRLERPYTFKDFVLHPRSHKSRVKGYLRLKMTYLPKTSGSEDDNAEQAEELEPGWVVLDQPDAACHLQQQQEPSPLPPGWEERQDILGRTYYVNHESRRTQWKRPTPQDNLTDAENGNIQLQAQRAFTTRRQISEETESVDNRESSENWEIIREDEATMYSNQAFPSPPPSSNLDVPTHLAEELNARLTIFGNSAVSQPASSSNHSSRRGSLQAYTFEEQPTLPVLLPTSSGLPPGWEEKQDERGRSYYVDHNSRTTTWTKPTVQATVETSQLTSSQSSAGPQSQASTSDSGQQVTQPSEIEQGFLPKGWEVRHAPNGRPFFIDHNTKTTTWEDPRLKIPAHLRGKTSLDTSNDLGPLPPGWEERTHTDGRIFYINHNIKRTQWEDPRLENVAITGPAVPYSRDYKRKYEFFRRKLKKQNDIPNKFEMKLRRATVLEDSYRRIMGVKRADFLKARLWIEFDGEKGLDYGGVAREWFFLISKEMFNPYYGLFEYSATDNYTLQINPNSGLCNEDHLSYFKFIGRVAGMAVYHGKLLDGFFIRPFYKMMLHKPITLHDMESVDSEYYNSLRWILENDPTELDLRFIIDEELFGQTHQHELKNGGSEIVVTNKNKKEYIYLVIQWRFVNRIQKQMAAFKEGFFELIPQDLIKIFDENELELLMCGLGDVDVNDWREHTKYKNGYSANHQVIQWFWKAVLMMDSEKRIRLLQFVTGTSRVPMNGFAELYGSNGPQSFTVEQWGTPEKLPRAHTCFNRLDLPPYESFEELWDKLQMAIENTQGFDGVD
UniProt P21462, whole entry: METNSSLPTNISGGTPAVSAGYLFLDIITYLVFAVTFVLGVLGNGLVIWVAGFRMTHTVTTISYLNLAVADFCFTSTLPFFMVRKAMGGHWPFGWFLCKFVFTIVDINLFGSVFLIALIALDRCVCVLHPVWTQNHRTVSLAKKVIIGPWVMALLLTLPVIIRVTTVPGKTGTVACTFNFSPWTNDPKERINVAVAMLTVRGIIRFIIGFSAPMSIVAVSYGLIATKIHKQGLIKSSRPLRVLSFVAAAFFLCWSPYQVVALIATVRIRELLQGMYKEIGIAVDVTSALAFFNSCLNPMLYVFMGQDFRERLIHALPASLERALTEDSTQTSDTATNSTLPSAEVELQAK
UniProt P45983, 1-384 isoform 3 C116S: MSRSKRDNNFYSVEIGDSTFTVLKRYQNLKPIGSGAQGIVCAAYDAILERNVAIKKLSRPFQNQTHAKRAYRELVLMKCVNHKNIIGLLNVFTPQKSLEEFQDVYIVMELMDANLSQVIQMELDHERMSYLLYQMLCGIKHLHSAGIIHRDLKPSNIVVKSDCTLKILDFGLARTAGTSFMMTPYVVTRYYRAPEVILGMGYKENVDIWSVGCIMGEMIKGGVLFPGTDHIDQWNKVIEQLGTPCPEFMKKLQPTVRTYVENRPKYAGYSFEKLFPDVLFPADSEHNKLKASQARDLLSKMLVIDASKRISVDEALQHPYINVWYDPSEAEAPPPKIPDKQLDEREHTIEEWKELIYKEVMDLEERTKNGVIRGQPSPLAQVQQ
UniProt Q96SW2, whole entry: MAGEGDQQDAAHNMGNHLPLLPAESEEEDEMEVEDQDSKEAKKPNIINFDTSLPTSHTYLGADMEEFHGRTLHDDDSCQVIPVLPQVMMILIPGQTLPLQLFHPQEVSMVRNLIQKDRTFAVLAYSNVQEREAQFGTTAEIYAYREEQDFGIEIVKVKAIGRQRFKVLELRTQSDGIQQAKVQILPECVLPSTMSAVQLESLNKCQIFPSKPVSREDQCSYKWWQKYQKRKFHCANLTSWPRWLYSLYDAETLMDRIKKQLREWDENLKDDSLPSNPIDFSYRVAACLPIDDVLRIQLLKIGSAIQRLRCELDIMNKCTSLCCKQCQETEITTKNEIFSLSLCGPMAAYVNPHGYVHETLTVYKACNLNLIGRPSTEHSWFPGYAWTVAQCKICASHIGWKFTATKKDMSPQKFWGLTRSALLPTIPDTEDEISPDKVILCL
UniProt P05067, 672-713 limits assumed: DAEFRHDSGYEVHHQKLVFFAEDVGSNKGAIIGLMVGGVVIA
UniProt P05067, whole entry, looked up: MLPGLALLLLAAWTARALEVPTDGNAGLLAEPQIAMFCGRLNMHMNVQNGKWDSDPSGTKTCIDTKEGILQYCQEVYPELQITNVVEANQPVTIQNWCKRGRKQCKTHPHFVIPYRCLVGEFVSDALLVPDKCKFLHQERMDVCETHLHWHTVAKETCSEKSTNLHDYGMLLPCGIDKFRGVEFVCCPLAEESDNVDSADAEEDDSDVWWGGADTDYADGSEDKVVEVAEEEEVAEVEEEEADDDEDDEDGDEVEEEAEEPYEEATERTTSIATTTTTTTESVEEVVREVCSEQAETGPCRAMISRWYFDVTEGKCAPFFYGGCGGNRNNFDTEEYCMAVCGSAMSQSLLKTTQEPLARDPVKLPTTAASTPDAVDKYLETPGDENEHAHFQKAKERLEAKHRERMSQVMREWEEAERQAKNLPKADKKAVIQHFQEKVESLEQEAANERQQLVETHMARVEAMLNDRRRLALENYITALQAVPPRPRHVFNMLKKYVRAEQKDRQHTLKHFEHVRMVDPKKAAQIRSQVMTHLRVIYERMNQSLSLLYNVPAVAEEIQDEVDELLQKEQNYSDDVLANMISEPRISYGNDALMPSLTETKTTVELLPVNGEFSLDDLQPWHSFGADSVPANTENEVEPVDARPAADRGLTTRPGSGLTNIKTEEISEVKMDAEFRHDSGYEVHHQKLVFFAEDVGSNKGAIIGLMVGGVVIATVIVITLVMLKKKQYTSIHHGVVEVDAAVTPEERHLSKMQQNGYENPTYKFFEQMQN
UniProt P35968, 20-1356 limits assumed: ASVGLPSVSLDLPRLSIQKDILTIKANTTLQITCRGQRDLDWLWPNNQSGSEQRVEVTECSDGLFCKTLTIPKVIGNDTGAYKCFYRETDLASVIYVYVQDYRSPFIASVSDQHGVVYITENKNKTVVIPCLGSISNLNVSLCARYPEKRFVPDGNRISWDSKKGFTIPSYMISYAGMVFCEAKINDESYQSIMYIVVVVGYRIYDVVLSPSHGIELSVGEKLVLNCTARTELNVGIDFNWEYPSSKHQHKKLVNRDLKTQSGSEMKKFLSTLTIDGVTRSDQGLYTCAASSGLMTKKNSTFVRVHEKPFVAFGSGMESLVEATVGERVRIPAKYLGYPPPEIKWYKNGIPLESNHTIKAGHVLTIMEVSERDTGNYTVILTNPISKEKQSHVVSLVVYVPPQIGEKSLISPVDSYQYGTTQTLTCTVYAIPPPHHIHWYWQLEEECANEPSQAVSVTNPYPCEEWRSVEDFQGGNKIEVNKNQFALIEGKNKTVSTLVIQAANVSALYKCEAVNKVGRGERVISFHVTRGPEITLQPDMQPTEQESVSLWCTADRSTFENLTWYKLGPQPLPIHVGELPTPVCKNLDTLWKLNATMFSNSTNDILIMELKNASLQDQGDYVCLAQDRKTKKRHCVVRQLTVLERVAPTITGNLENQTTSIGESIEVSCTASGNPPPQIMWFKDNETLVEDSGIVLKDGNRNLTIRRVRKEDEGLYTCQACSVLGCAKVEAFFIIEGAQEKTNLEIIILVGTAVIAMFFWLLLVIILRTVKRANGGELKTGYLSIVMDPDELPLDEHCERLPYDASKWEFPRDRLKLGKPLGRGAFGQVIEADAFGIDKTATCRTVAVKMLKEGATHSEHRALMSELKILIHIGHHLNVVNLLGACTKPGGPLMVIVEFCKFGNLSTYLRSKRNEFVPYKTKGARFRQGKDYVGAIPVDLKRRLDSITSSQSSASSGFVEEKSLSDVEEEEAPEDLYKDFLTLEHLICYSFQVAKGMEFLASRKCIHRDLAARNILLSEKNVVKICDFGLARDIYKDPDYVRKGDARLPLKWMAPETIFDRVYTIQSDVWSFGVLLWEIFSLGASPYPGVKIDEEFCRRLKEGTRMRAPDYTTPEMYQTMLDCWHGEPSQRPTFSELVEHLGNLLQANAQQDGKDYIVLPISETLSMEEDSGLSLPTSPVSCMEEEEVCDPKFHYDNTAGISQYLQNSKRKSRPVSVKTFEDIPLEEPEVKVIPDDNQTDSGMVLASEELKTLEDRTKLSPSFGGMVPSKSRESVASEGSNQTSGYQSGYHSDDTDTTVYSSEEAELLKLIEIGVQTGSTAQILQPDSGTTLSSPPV
UniProt O60502, whole entry: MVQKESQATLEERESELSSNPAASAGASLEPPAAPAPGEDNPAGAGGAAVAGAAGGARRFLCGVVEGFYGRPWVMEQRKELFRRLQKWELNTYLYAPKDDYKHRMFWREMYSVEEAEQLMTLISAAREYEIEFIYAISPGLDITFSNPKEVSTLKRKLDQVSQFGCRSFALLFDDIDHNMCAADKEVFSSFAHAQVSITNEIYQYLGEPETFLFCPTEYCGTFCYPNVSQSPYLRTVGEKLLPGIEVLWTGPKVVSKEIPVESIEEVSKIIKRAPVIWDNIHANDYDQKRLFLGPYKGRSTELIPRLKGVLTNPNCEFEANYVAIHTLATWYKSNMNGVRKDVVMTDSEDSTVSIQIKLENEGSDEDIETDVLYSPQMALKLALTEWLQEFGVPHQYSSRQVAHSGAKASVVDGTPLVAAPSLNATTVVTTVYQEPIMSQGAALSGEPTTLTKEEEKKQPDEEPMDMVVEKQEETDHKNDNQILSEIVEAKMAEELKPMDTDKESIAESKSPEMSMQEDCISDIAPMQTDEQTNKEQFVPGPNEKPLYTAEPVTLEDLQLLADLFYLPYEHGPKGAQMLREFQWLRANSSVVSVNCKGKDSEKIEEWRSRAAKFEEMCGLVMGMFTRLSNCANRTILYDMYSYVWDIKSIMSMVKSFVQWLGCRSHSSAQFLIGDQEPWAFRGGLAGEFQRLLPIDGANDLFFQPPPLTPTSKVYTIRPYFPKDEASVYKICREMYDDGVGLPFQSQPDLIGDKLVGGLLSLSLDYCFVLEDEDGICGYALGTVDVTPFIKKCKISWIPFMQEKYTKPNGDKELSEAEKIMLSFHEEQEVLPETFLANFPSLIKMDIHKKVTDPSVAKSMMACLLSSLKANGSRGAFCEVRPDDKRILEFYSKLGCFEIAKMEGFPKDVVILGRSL
UniProt P53779, 1-422 isoform 2: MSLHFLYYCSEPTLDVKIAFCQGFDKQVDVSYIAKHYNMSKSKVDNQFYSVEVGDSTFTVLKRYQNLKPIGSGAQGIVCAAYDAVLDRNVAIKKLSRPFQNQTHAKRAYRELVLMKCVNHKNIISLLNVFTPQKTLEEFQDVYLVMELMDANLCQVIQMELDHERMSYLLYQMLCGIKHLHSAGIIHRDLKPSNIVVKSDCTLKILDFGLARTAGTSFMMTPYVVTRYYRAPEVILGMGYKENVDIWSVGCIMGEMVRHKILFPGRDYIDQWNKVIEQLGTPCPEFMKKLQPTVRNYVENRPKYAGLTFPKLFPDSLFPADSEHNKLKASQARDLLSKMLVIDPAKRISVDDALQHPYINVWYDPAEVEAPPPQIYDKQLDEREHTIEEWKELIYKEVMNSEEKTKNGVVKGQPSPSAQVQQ
UniProt Q923Y8, whole entry T268M/Y287N: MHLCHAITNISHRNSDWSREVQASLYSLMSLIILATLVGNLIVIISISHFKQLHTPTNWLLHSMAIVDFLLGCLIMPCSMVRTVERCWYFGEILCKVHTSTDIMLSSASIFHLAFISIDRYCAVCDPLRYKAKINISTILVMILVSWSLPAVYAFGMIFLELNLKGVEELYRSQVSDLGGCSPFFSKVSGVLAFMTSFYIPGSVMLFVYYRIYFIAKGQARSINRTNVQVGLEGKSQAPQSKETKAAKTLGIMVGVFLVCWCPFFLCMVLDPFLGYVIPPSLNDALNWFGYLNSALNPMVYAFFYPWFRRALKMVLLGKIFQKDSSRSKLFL

| Compound | target | test | system | conditions | how to read | quantity | result |
| --- | --- | --- | --- | --- | --- | --- | --- |
| CC(C)n1nnc(-c2ccc(F)c(Nc3ncnn4ccc(CN5CCC(N)CC5)c34)c2)n1 | AP2-associated protein kinase 1 (AAK1, Homo sapiens, UniProt Q2M2I8) | enzyme activity, inhibitor | – | – | baseline: 18 | potency fold decrease | 100 fold |
| COC(=O)[C@@]1(C)C=C(C(=O)OCc2cccc(C(=O)Nc3ccc(Nc4nccc(-c5cccnc5)n4)c(C)c3)c2)C(=O)CC1 | Mitogen-activated protein kinase 8 (MAPK8, Homo sapiens, UniProt P45983, C116S) | surface plasmon resonance | – | 100, 300, 1000 nM, 1:1 binding model | – | koff | 0.0621 s⁻¹ |
| NC(=O)c1cn(-c2ccc(F)cc2)c2ccc(NCCc3cccnc3)cc2c1=O | Grm2 | calcium mobilization, negative allosteric modulator | – | 30 µM, together with: glutamate 100 µM | baseline: glutamate maximum | response | 1.98 ± 0.67% |
| Nc1nc(SCc2ccc(Cl)cc2)nn1S(=O)(=O)c1ccoc1 | Lysophospholipase-like protein 1 | activator, gel-based ABPP FP-rhodamine | – | – | baseline: DMSO | probe labelling | 2.4 fold |
| Cc1cc(SCc2sc(-c3ccc4[nH]ncc4c3)nc2C)ccc1OCC(=O)O | Vitamin D3 receptor (VDR, Homo sapiens, UniProt P11473) | reporter gene, antagonist | HEK-293T | up to 100 µM, CYP24A1 promoter luciferase, together with: 1,25(OH)2D3 10 nM | – | IC50 | inactive |
| CC(=O)N1CCN(c2ccc(Nc3ncc4c(n3)N(C)C(=O)N(c3cc(NC(=O)c5ccc(CN6CCC(N(C)C)C6)c(C(F)(F)F)c5)ccc3C)C4)cn2)CC1 (stereo not drawn) | FGFR4/Transcription factor ETV6 (Homo sapiens, UniProt P22455+P41212, N535K) | cell proliferation | Ba/F3 TEL-FGFR4 N535K | 72 h | – | GI50 | 12 nM |
| Cn1c(=O)oc2ccc(S(=O)(=O)n3nc(SCc4ccc(Cl)cc4)nc3N)cc21 | Lysophospholipase-like protein 1 | activator, gel-based ABPP FP-rhodamine | – | – | baseline: DMSO | probe labelling | 2.4 fold |
| O=C(Nc1ccc(C(=O)N2CC(c3nccs3)C2)s1)[C@@H]1CCCN1 | YEATS domain-containing protein 2 (Homo sapiens, UniProt Q9ULM3) | – | – | concentration not given, YEATS2 | – | binding | no binding |
| CCOC(=O)/C=C/CNCCCN1c2ccccc2CCc2ccc([N+](=O)[O-])cc21 | E3 ubiquitin-protein ligase NEDD4 | inhibitor, Ub-TR-FRET | – | 1.235 µM, 1 h preincubation, HECT domain, together with: ATP 2 mM | higher = more ubiquitination | ubiquitination TR-FRET signal AUC | 132000 a.u. and 128000 a.u. and 131000 a.u. |
| Cc1ccc(C(=O)Nc2ccccc2C(=O)O)cc1S(=O)(=O)Nc1ccc2ccccc2c1 | RPA1 N-terminal domain | binding, fluorescence polarisation competition | – | together with: FITC-ATRIP probe | – | ligand efficiency | 0.17 |
| COc1ccc(NC(=O)CN2CCCN(S(=O)(=O)c3ccc(C)c(Cl)c3)CC2)c(OC)c1 | GRM4 | calcium mobilization, positive allosteric modulator | CHO cells with Gqi5 | together with: glutamate | baseline: PHCCC maximal response | maximal response | 39.2 ± 1.2% |
| O=C(Nc1cccc(F)c1)c1cc(S(=O)(=O)N2CCOCC2)c(Cl)cc1Cl | Autotaxin (ENPP2, Homo sapiens, UniProt Q13822) | enzyme activity, inhibitor, TLC densitometry, measured: fluorescent LPA | – | 10 µM, 4 h, 37 °C, together with: 30 µM fluorescent LPC substrate | – | inhibition | 85 ± 11% |
| CCc1ccc(NS(=O)(=O)c2cc(C(=O)Nc3ccccc3C(=O)O)ccc2C)cc1 | RPA1 N-terminal domain | binding, fluorescence polarisation competition | – | together with: FITC-ATRIP probe | – | ligand efficiency | 0.18 |
| CCOc1ccccc1Nc1nnc(SCC(=O)Nc2cc(F)ccc2F)s1 | CD28, with CD86 (Homo sapiens, UniProt P10747) | NanoBiT complementation | CHO-K1 | 100 µM | – | onset of luminescence reduction | 30 min |
| CCOc1ccc(NC(=O)CSc2nc3ccc(OCC)cc3[nH]2)cc1 | FPR1 | calcium mobilization, agonist | HL-60 transfected with FPR1 | concentration not given | – | activity | inactive |
| Nc1nc(SCc2ccc(Cl)cc2)nn1S(=O)(=O)c1ccc(-c2ccccc2)nc1 | Lysophospholipase-like protein 1 | activator, gel-based ABPP FP-rhodamine | – | – | baseline: DMSO | probe labelling | 1.3 fold |
| O=C(Nc1nccs1)C12CC1/C(=N\O)c1ccccc1O2 (stereo not drawn) | GRM4 | positive allosteric modulator, calcium mobilization | CHO expressing Gqi5 | concentration not given, together with: glutamate EC20 | baseline: glutamate 1 mM | response | 127 ± 10.4% |
| Cc1[nH]c2cc(Cl)cc(Cl)c2c1CCn1cc(CCCCO)nn1 | GLP1R | cAMP accumulation, positive allosteric modulator, HTRF | – | 0.6 µM, purified compound, together with: GLP-1(9-36) at EC20 | baseline: BETP | Emax | 98 ± 5% |

| Compound | target | test | system | conditions | how to read | quantity | result |
| --- | --- | --- | --- | --- | --- | --- | --- |
| Cc1cccc2nc(-c3ccc4c(c3)C(=O)N(C3CCC(=O)NC3=O)C4=O)c(NC(C)(C)CC(C)(C)C)n12 (stereo not drawn) | WEE1/CRBN (Homo sapiens, UniProt P30291+Q96SW2) | degrader, HiBiT | Jurkat | 5 h | – | Dmax | 85% |
| CCOC(=O)/C=C/CNCCCCN1c2ccccc2CCc2ccc(Cl)cc21 | E3 ubiquitin-protein ligase NEDD4 | inhibitor, Ub-TR-FRET | – | 0.005081 µM, 1 h preincubation, HECT domain, together with: ATP 2 mM | higher = more ubiquitination | ubiquitination TR-FRET signal AUC | 93400 a.u. and 92400 a.u. and 93200 a.u. and 90900 a.u. and 146000 a.u. and 91600 a.u. |
| O=C(O)c1ccnc(C(=O)O)c1Nc1ccc(F)cc1F | Lysine-specific demethylase 4E (KDM4E, Homo sapiens, UniProt B2RXH2) | inhibitor, FDH-coupled spectrophotometry, measured: formaldehyde | – | 200 µM | – | remaining activity | 12% |
| CC(C)(Cn1cc(-c2ccc(CO)cc2)nn1)c1c[nH]c2ccccc12 | GLP1R | cAMP accumulation, positive allosteric modulator, HTRF | – | 0.6 µM, crude reaction product, together with: GLP-1(9-36) at EC20 | baseline: BETP | Emax | 84.7% |
| O=C(/C=C/c1ccc(O)c(OC(F)(F)F)c1)C(CCOCCOC1CCCCO1)C(=O)/C=C/c1ccc(O)c(OC(F)(F)F)c1 (stereo not drawn) | Amyloid-beta precursor protein (APP, Homo sapiens, UniProt P05067) | SDS-PAGE western blot, measured: Aβ1-42 species 75-200 kDa | – | 30 µM, 24 h, 37 °C, together with: Aβ 10 µM | baseline: DMSO control | Aβ band density | 1860 ± 227% |
| NCCOCCOCCNC(=O)[C@@H]1CCCCNC(=O)[C@H](Cc2ccc([N+](=O)[O-])cc2)NC(=O)[C@H](Cc2ccco2)NC(=O)C[C@H](O)[C@H](CC2CCCCC2)NC(=O)/C=C\C(=O)N1 | Vascular endothelial growth factor receptor 2 (KDR, Homo sapiens, UniProt P35968) | activator, Z'-LYTE | – | 10 µM | – | enzyme activity increase | 70% |
| Nc1ncnc2c1c(-c1ccc(C(=O)Nc3cc(OC(F)(F)F)ccn3)cc1)nn2[C@@H]1CCCN(C(=O)C2CC2)C1 | Tyrosine-protein kinase BTK, non-phosphorylated (BTK, Homo sapiens, UniProt Q06187) | TR-FRET binding kinetics | – | 37 °C, unphosphorylated protein | – | koff | 0.000426 ± 4.3e-05 s⁻¹ |
| COc1ccc2[nH]cc(/C=C/c3ccc([N+](=O)[O-])cc3F)c2c1 | Amyloid-beta precursor protein, Aβ1-40 (APP, Homo sapiens, UniProt P05067) | Aβ40 aggregation, thioflavin T fluorescence | – | 25 µM | – | inhibition | 64% |
| CC(=O)Nc1ncc(CN2CC[C@H](Oc3cccc(F)n3)C[C@@H]2C)s1 [isotope labelled] | Protein O-GlcNAcase (OGA, Homo sapiens, UniProt O60502) | autoradiography | human striatum sections | 5 nM, radiolabelled compound | – | binding | 3.7 nCi/mg |
| CC(C)c1ccc(C(=O)Nc2ccccc2C(=O)O)cc1S(=O)(=O)Nc1ccc(Cl)c(Cl)c1 | RPA1 N-terminal domain | binding, fluorescence polarisation competition | – | together with: FITC-ATRIP probe | – | ligand efficiency | 0.22 |
| CCOC(=O)/C=C/CNCCCN1c2ccccc2CCc2ccccc21 | E3 ubiquitin-protein ligase NEDD4 | inhibitor, Ub-TR-FRET | – | 0.01524 µM, 1 h preincubation, HECT domain, together with: ATP 2 mM | higher = more ubiquitination | ubiquitination TR-FRET signal AUC | 131000 a.u. and 129000 a.u. and 130000 a.u. |
| COC(=O)[C@@]1(C)C=C(C(=O)Nc2cccc(C(=O)NC34CC(Nc5nccc(-c6cccnc6)n5)(C3)C4)c2)C(=O)CC1 | Mitogen-activated protein kinase 10 (MAPK10, Homo sapiens, UniProt P53779) | enzyme activity, inhibitor | – | 0.5487 µM | – | remaining activity | 0.141 fraction of control |
| CCCCCN(C)C(=O)Oc1ccccc1C=C1Cc2cc(OC)c(OC)cc2C1=O | Cocaine esterase (CES2, Homo sapiens, UniProt O00748) | inactivator | – | – | – | KI | 7.05 nM |
| CCN(Cc1cccnc1)c1ccc2c(c1)c(=O)c(C(N)=O)cn2-c1ccc(F)cc1 | Grm2 | calcium mobilization, negative allosteric modulator | – | 30 µM, together with: glutamate 100 µM | baseline: glutamate maximum | response | 2.36 ± 0.14% |
| O=C(O)c1cc(C(=O)N2CCC[C@H]2C(=O)O)cc([C@H]2CCN[C@@H]2C(=O)O)c1 | Glutamate receptor ionotropic, kainate 2 (Grik2, Rattus norvegicus, UniProt P42260) | radioligand binding | Sf9 membranes | 10 µM, homomeric receptor, together with: [3H]kainate | – | specific binding | 86 ± 1% |
| NCC(c1ccc(O)cc1)c1ccc(Oc2ccccc2)cc1 (stereo not drawn) | Trace amine-associated receptor 1 (Taar1, Mus musculus, UniProt Q923Y8, T268M/Y287N) | cAMP production, agonist | – | double mutant | baseline: wild type | efficacy increase | 39 to 95% |
| CC(=O)N[C@@H](CC(C)C)C(=O)N[C@@H](CCCNC(=N)N)C(=O)N[C@@H](CO)C(=O)N[C@@H](CCCNC(=N)N)C(=O)Nc1ccc2c(C)cc(=O)oc2c1 | Mucosa-associated lymphoid tissue lymphoma translocation protein 1 (MALT1, Homo sapiens, UniProt Q9UDY8) | substrate, fluorogenic peptide hydrolysis | – | pH 7.5, enzyme 399 nM, citrate 0.9 M | – | kcat/Km | 1400 M⁻¹ s⁻¹ |
| COc1ccc(OC)c(C2C(C(=O)c3ccccc3)=C(O)C(=O)N2CCCN2CCOCC2)c1 (stereo not drawn) | FPR1 | fMLF-induced calcium mobilization, antagonist | HL-60 expressing FPR1 | concentration not given | – | antagonist activity | active |
